Measured values gathered from unrelated publications.
Protocols differ between the studies behind these lines. Numbers after ± are the reported error.
alpha-carbonic anhydrase: alpha-carbonic anhydrase (Enterococcus faecium, UniProt Q3XYE8)
CA1: Carbonic anhydrase 1 (CA1, Homo sapiens, UniProt P00915)

Chains of the proteins cited; added tags and fusions are not shown. Residues count along the entry.
UniProt Q3XYE8, 1-234: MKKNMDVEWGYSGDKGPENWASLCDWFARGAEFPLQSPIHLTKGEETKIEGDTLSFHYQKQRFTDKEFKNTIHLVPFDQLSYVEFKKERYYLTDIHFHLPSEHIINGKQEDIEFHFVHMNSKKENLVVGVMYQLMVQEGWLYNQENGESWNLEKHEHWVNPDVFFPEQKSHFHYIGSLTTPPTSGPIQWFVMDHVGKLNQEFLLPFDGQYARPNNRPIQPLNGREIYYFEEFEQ
UniProt P00915, whole entry: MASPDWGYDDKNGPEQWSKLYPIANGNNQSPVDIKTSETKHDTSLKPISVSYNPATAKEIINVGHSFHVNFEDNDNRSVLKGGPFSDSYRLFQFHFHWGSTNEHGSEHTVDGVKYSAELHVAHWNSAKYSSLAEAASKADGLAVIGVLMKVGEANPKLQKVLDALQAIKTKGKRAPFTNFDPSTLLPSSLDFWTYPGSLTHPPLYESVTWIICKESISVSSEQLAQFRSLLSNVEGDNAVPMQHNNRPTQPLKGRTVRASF
UniProt P21917, whole entry: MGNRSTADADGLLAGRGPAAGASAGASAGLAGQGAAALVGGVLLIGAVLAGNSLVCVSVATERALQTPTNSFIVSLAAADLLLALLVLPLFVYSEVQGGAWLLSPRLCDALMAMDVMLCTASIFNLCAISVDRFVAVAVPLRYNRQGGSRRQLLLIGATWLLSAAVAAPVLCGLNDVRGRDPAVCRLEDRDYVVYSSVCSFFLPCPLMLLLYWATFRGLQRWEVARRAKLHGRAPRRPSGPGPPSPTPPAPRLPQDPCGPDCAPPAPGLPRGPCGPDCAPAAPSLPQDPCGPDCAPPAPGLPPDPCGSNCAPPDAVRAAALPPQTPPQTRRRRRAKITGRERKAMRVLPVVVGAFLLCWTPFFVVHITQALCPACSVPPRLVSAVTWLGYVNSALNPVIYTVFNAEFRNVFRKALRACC
UniProt P35462, whole entry: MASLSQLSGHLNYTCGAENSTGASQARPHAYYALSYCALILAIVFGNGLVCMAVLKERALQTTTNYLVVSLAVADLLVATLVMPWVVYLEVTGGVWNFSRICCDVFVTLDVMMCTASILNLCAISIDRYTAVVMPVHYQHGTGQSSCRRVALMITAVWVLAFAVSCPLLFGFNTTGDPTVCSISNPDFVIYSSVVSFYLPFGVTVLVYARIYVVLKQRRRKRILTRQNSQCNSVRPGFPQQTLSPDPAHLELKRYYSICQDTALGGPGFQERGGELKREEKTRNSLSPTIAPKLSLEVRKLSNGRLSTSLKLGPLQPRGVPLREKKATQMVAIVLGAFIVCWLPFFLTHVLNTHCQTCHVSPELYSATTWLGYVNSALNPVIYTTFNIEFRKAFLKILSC
UniProt O15151, 23-111 limits assumed: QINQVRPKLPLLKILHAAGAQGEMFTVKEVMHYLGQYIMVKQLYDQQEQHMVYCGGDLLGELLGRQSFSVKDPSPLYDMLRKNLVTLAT
UniProt Q16539, whole entry: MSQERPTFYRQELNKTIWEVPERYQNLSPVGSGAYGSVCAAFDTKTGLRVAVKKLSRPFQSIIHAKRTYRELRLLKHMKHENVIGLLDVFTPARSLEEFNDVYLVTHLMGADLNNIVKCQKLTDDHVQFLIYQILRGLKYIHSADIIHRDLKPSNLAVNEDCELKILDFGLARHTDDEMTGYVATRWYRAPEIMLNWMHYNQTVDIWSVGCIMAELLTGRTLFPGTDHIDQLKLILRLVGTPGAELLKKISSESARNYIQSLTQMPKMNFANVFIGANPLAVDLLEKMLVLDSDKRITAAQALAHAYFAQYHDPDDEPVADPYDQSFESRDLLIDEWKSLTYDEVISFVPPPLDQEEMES
UniProt P25090, whole entry: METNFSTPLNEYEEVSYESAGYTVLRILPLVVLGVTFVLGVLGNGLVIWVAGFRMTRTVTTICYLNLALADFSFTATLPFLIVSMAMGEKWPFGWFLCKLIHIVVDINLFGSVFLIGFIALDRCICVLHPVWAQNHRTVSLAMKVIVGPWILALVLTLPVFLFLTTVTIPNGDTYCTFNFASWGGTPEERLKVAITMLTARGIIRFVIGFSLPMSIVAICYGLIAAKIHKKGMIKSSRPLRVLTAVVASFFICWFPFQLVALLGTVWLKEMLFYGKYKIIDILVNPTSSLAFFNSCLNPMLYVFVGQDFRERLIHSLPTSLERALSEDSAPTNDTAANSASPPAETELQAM
UniProt Q9QYN8, whole entry: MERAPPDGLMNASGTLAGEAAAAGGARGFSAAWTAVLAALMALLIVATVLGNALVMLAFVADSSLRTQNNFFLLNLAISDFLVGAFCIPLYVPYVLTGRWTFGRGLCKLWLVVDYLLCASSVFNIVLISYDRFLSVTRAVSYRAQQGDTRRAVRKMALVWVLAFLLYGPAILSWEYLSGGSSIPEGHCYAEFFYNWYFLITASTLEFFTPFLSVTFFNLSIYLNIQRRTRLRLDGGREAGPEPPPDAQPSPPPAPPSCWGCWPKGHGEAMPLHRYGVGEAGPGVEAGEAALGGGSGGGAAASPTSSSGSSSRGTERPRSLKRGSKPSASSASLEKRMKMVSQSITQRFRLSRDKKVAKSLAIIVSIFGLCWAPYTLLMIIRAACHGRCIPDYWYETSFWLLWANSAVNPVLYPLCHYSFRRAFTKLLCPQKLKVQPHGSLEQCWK
UniProt O96013, whole entry: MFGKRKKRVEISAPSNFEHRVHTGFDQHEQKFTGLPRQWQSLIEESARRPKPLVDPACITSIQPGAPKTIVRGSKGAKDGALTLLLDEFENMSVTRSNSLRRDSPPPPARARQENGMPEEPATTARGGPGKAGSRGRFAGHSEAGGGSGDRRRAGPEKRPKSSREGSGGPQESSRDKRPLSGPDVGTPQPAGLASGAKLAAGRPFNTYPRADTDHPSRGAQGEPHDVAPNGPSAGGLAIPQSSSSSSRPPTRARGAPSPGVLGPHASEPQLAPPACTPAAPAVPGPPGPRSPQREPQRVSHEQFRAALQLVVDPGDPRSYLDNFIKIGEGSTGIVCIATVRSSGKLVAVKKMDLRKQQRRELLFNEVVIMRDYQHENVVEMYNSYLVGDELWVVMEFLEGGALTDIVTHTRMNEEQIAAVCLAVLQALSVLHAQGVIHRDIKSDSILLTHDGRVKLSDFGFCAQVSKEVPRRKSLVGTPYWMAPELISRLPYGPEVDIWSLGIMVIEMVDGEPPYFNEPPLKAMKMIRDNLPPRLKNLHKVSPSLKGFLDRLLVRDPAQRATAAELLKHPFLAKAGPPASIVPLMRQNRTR
UniProt P19821, whole entry: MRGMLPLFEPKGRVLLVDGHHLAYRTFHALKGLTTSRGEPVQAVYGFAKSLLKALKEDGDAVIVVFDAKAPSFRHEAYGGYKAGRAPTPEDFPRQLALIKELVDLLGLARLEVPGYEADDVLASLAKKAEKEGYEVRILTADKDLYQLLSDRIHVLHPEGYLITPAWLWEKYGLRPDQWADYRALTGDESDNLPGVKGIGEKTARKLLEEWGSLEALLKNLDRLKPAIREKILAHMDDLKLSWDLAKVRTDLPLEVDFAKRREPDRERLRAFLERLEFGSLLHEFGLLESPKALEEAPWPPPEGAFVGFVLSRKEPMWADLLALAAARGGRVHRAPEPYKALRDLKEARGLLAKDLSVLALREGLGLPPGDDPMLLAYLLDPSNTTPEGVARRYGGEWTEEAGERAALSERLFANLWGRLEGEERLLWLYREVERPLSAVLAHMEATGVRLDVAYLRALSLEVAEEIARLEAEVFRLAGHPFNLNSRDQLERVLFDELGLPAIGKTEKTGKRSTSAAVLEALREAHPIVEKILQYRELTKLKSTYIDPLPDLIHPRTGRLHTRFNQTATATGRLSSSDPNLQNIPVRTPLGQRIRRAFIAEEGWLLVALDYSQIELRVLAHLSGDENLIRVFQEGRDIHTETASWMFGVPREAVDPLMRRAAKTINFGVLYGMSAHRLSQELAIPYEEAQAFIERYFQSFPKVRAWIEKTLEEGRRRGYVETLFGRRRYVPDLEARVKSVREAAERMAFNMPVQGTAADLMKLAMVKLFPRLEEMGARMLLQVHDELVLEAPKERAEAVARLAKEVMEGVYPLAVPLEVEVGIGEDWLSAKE
UniProt P21462, whole entry: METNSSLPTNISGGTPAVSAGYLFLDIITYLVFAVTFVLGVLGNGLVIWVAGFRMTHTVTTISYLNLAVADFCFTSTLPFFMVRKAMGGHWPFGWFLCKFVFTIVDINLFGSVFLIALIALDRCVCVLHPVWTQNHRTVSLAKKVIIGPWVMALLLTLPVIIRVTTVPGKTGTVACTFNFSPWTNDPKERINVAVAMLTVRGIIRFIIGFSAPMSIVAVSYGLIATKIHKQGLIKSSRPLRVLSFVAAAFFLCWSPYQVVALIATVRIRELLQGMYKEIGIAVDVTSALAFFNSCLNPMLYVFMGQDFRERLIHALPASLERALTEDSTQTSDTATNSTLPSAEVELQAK
UniProt P00492, whole entry: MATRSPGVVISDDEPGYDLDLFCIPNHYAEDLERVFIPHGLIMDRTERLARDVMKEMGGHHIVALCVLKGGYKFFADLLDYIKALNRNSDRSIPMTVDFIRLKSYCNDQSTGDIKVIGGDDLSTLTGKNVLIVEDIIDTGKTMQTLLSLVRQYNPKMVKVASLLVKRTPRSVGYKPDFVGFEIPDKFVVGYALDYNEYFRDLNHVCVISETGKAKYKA

For `CCOC(=O)c1c(-c2ccc(Cl)cc2Cl)n(-c2nc(-c3ccc(Cl)cc3)c3c(NC(=O)c4ccccc4)nnc-3[nH]2)[nH]c1=O`, the cell growth was 2.68% (U-251; SRB; 10 µM).
With `CC(C)(CC(=O)Nc1nnc(S(N)(=O)=O)s1)C1CCCCC1` the Ki was 17.1 nM (alpha-carbonic anhydrase; CO2 hydration, inhibitor, stopped-flow kinetics).
For `COc1ccccc1N1CCN(CCCCc2cn(-c3cccc4ncccc34)nn2)CC1`, the Ki was > 1000 nM (DRD4 (Homo sapiens, UniProt P21917); binding; HEK293 membranes; added: 0.4 nM [3H]N-methylspiperone).
The Ki of `CCn1c2c(c3ccccc31)CCN(CCCCNC(=O)c1ccc3[nH]c4ccccc4c3c1)C2` is reported as 36.7 ± 1.5 nM (DRD3 (Homo sapiens, UniProt P35462); binding).
`NS(=O)(=O)c1nnc(NC(=O)CC2C3CC4CC(C3)CC2C4)s1` (stereo not drawn) gave a Ki of 36.9 nM (alpha-carbonic anhydrase; CO2 hydration, inhibitor, stopped-flow kinetics).
With `COc1cccc([C@@H]2N=C(c3ccc(OC)cc3OC(C)C)N(C(=O)N3CCNC(=O)C3)[C@@H]2c2ccc(Cl)cc2)c1` (relative stereo) the Kd was 12000 ± 6000 nM (Protein Mdm4 (MDM4, Homo sapiens, UniProt O15151); isothermal titration calorimetry; 298 K).
`CC(C)C[C@H](NC(=O)[C@H](C)NC(=O)[C@H](CCCNC(=N)N)NC(=O)[C@H](CCCNC(=N)N)NC(=O)[C@H](CCCNC(=N)N)NC(=O)[C@H](C)NC(=O)[C@H](CC(C)C)NC(=O)[C@H](CCCNC(=N)N)NC(=O)[C@H](CO)NC(=O)[C@H](CCCCN)NC(=O)[C@H](CO)NC(=O)Cn1cc(COC(=O)[C@]2(C)C=C(C(=O)OC(C)(C)C)C(=O)CC2)nn1)C(=O)O` has a Ki of ~3 nM (MAPK14 (Homo sapiens, UniProt Q16539); D-peptide displacement, fluorescence polarization).
The Ki of `CCc1cc2c(=O)c(-c3nc4ccccc4n3C)c(C)oc2cc1OC(C)=O` is reported as 4400 nM (FPR2 (Homo sapiens, UniProt P25090); binding; single representative run).
`C=C(C)C(=O)Nc1ccc(-c2c(-c3ccc(Oc4nccc(C)n4)c(F)c3)c3c(N)ncnc3n2C)cc1`: “area over GR curve” 0.498 (MFE-280; cell growth, CellTiter-Glo; 120 h, unit not given; relative to: untreated growth rate, higher = stronger inhibition).
The Ki of `NS(=O)(=O)c1nnc(NC(=O)C2C3CC4CC(C3)CC2C4)s1` (stereo not drawn) is reported as 195 nM (CA1; CO2 hydration, inhibitor, stopped-flow kinetics).
`c1cnc2c(N3CCN(CCCN4CCN(c5cccc6sccc56)CC4)CC3)cccc2c1` has a Ki of 753 ± 98.5 nM (Hrh3 (Rattus norvegicus, UniProt Q9QYN8); binding; rat cerebral cortex membranes; added: [3H]N-alpha-methylhistamine).
For `OC1(C#Cc2ccc3ccn(-c4ccnc(Nc5ccc(C(F)(F)F)cc5)n4)c3c2)CCCCC1`, the Ki was 230 nM (PAK4 (Homo sapiens, UniProt O96013); inhibitor, HTRF).
For `CC/C=C\C/C=C\CCC/C=C/C=C/C=C\CCCC(=O)O`, the IC50 was > 100000 nM (polA (Thermus aquaticus, UniProt P19821); enzyme activity, inhibitor; Taq polymerase).
`NS(=O)(=O)c1nnc(NC(=O)C2C3CC2C3)s1` (stereo not drawn) gave a Ki of 109 nM (CA1; CO2 hydration, inhibitor, stopped-flow kinetics).
`CC(C)C[C@H](NC(=O)[C@@H](NC(=O)[C@H](CC(C)C)NC(=O)[C@H](CS)NC(=O)CNS(=O)(=O)c1cccc2c(N(C)C)cccc12)C(C)C)C(=O)O` gave a Km of 2.1 ± 0.9 µM (geranylgeranyltransferase type-I (Rattus norvegicus, UniProt P53610+Q04631); substrate, fluorescence; 30 °C, added: GTP 30 µM and GGPP 10 µM).
For `COc1ccc(-c2cn3cccnc3n2)cc1NC(=O)C(C)C`, the Ki was > 13300 nM (FPR1 (Homo sapiens, UniProt P21462); binding; above upper limit in 14 of 17 runs).
For `N#Cc1c(-c2ccc(Cl)cc2Cl)n(-c2nc(-c3ccc(Cl)cc3)c3c(NC(=O)c4ccccc4)nnc-3[nH]2)[nH]c1=O`, the cell growth was 6.8% (U-251; SRB; 10 µM).
For `O=c1[nH]cnc2c(CN[C@H](CO)CCP(=O)(O)O)c[nH]c12`, the Ki was 385 nM (Hypoxanthine-guanine phosphoribosyltransferase (Homo sapiens, UniProt P00492); enzyme activity, inhibitor, spectrophotometric).

Some of these lines once more:
For `O=c1[nH]cnc2c(CN[C@H](CO)CCP(=O)(O)O)c[nH]c12`, the Ki was 385 nM (Hypoxanthine-guanine phosphoribosyltransferase (Homo sapiens, UniProt P00492); enzyme activity, inhibitor, spectrophotometric).
The Ki of `NS(=O)(=O)c1nnc(NC(=O)C2C3CC4CC(C3)CC2C4)s1` (stereo not drawn) is reported as 195 nM (CA1; CO2 hydration, inhibitor, stopped-flow kinetics).
